# Measurements gathered from unrelated publications.
# Parts stem from different laboratories: compare values within a part only. Positions count from the first letter of the parent shown.

# Sample 1
# Target: CCNA2, cyclin fold, Cln2 fusion (human)
# Method: yeast growth competition, sequencing
# Matrix: yeast
# Setting: strong parent motif
# Reference: not given
# Direction: higher = stronger binding
# Starting sequence: GMNC docking peptide (human); KNAKRNLSSEFAN; partner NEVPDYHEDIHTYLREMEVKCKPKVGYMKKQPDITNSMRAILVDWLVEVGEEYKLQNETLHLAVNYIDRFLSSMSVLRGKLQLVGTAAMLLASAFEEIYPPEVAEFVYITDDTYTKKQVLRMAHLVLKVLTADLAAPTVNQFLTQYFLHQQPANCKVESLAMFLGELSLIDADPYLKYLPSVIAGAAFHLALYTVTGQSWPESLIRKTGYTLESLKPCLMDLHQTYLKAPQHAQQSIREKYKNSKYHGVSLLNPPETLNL
Variant,normalised enrichment score
KIAKRNLSSEFAN [N2I],4.08
KNAKFNLSSEFAN [R5F],0.123
KNAKRNLSSETAN [F11T],0.77
KNLKRNLSSEFAN [A3L],2.44
KNAKRNLFSEFAN [S8F],5.5
KNAKRNLDSEFAN [S8D],4.87
KNAKRNLCSEFAN [S8C],4.78
KNAKRNLSSEPAN [F11P],-0.0213
KNAKRNLSSEFQN [A12Q],4.75
KNAKRNLSSEFLN [A12L],4.3
KNAKSNLSSEFAN [R5S],0.689
KNAKRNLGSEFAN [S8G],3.93
KNAFRNLSSEFAN [K4F],4.14
KNAKRNLSYEFAN [S9Y],5.39
KWAKRNLSSEFAN [N2W],3.57
KNAYRNLSSEFAN [K4Y],4.2
KNAKMNLSSEFAN [R5M],0.639
KNAKRCLSSEFAN [N6C],4.83
KNAKRNLSSEFRN [A12R],4.73
KNAKRNLNSEFAN [S8N],5.15
KNAKRWLSSEFAN [N6W],0.654
KNAKRNLSDEFAN [S9D],4.8
KNAKRNLSIEFAN [S9I],5.59
KNAKRNLSSQFAN [E10Q],3.93
KNAKRQLSSEFAN [N6Q],1.7

# Sample 2
# Target: RNA binding protein fox-1 homolog 2, RRM domain, GST-SBP tag (RBFOX2, Homo sapiens, UniProt O43251-10, residues 100-194)
# Method: RNA Bind-n-Seq
# Molecule type: RNA
# Matrix: in vitro
# Tested at: 365 nM
# Setting: natural RNA segment, single round, ends assumed
# Reference: no-protein control
# Direction: higher = stronger binding
# Constant ends, left off below: GGGAGUUCUACAGUCCGACGAUC … UGGAAUUCUCGGGUGCCAA
# Construct (chain): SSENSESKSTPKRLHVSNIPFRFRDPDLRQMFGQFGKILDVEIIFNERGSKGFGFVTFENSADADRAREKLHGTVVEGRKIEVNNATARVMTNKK
Sequence,RBNS enrichment (R)
AGGACAUUUGCACUUUGCCACUCAAUGUCGUACCUCGGUUCACUGUUUGUUUUUGAAUGCCCUGUUUUCAUAGAAUCCUAUCCUCUCAGAUGGUGGAAUCUUUGGGGAAA,3.19
UCUGCACUAUUAUCUGAUGACAUGUUGGUAAUUUUAAAGACUGCAAGGCAGUUUAGAGAAUGAAGUAAACCAAUAGAUACUCUUUUGAUUCUCCAAAGAAAUAUAAUUUU,0.672
AAGCUACGCCGGUGGAAUGUCAGUGUGCUGCUCUGUAGGGAACUGCAGAGCUUAGAGGACUGACUGCAUCUUGUUAGGGAAGCAUCUUUGAGAUGCAGAAUUCAUCUUUU,0.237
AUCCAUUUCCCCACUUAUUUAUAACCAGCCUUCCUUUCAGUCCUAGUGCCUGGAUCAAUGAGAUGGACACUAAUGCUGCUUCUUUAUAAUAAUAGUACCUAAGAGUAUUG,0.615
AUAUAAUUGUUUCAGUCCUAUGGCAUGGUGAUAGCAUAUGUGUUCAGGUUUAUAGCUGUUGUGUUUAAAGAUUGAAAAAAGUGGAAAACAUCUUUGUACAUUUAAGUCUG,1.32
GCUGAGCUUAUUCUUAGGGUAUGACCUGGCAUUAUUUCCAGUGACUAGUCAGGCAUUAUGCCUGAUGCAUACGCCUCCCGUGCACCCCUAUCUAGCCUUCAGAUGUCCUC,0.195
AGGGCCUCCAUCCCUGUAUUCUAAUGUUUUUACUCAAAGCUCUAGCCUUUAGGAUAGGUGAAUAUGUAAAUCUUUUAUCACUUUCUCAAAUUCAAACUAAAGGGGAAAGA,0.301
CUGGGGCCUGAUCCACCUCUACACCAGCCCAGGAAGCCCCAUCUGUGCCUGCCCUCAGGUGGUCCACCAGUCUCCCCCUUUGGUUCCCUUCCAGUCUCUUCCCCCUUUCU,0.742

# Sample 3
# Target: Ras GTPase-activating protein-binding protein 1, full length (G3BP1, Homo sapiens, UniProt Q13283)
# Sequence of UniProt Q13283 (whole entry, looked up): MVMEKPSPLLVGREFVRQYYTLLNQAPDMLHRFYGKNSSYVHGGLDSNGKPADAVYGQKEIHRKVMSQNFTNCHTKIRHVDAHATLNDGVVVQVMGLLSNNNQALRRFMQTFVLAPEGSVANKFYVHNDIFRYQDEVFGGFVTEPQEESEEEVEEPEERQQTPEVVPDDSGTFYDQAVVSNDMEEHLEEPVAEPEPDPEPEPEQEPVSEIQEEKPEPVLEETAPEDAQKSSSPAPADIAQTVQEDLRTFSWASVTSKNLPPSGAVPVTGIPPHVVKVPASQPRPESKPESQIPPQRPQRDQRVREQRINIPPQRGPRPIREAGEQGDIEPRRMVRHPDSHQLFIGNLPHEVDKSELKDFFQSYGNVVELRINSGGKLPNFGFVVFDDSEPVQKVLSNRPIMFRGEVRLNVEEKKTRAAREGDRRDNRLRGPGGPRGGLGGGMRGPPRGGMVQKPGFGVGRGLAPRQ
# Method: RNA Bind-n-Seq
# Molecule type: RNA
# Matrix: in vitro
# Tested at: 200 nM
# Setting: whole 134-nt RNA, ends assumed
# With: 150 mM LiCl
# Reference: input library
# Direction: higher = stronger binding
# Library: 7-deaza-guanosine replaces G
# Constant ends, left off below: GGGAGUUCUACAGUCCGACGAUC … UGGAAUUCUCGGGUGUCAAGG
Sequence,log2 enrichment
UCCUGUGCUACACAUCGUAUGUACCGAAUCGGUUUUUUUGGAAAAAAAGGUUUUUUUGGAAAGUAUUAUGUUACGCCGUUCGGAUCUGCA,-2.3
CUCAAGUCCUGUGCUACACAUCGUAUGUACCGAAUCGGGAGGGUGGGUUUGGGAAAGUAUUAUGUUACGCCGUUCGGAUCUGCACUUCCA,-0.271
UGGCCCUGGUGGCAUGCGGGGAGGAAGAGGUGGCCGCAUGGAUCGUGGUGGUCCCGGUGGAAUGUUCAGAGGUGGCCGUGGUGGAGACAG,0.781
UGGCCCUGGUGGCAUGCGGGGAGGAAGAGGUUGCCUCAUGGAUCGUGGUGGUCCCGGUGGAAUGUUCAGAGGUGGCCGUGGUGGAGACAG,0.343
UGGGAGGUGGAUUUUGUCUAUUUUUUUAGCUCAUUUCCAGGGGUGGGAAUUUUUUUUUAAUAUGUGUCAUGAAUAAAGUUGUUUUUGAAA,-0.362
AAGUCCUGUGCUACACAUCGUAUGUACCGAAUCGGGUUUGGGGUUUGGGUUUGGGGAAAGUAUUAUGUUACGCCGUUCGGAUCUGCACUU,-0.412
UGGCCCUGGUGGCAUGCGGGGAGGAAGAGGUGGCCUCAUGGAUCGUGGUGGUCCCGGUCGAAUGUUCAGAGGUGGCCGUGGUGGAGACAG,0.0548
UGGUUAGUCAACUACUUUGGUUCCUUAUCAGUAGAAGACUCCCUAGAAUGUCUCAGAGCCAUGCUGUCUGCCAACAUCCGUCAGAAUCUG,-0.345

# Sample 4
# Target: Histone acetyltransferase KAT6A, both winged helices, GST fusion (KAT6A, Homo sapiens, UniProt Q92794, residues 1-181)
# Method: protein binding microarray
# Molecule type: double-stranded DNA, one strand shown
# Matrix: in vitro
# Tested at: not given
# Setting: 8-mer, flanks averaged, mean of 2 arrays, mostly near background
# Reference: not given
# Direction: higher = stronger binding
# Construct (chain): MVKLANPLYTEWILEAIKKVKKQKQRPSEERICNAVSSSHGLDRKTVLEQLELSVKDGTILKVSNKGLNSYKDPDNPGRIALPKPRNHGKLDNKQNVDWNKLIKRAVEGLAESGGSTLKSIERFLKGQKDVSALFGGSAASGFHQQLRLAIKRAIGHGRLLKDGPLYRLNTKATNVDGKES
Sequence,E-score
ACTTCGCC,0.115
AAGCCGGG,0.119
AAGACTTC,-0.151
CACGAGCG,0.126
ATGGTGTA,-0.115
CAACAAGC,-0.102
AAAGGGGC,-0.185
AAATGAAC,-0.135
TAACACCA,-0.149
CACGTAGG,-0.203
ACGGCCTG,0.197
AGGCAGGC,-0.138
AAGCAATA,-0.142
ACTTACAG,-0.136
CGGGGTCC,0.181
CTAGCACC,-0.0767
AAAACGCA,0.107
AGCTGATG,-0.0569
CTAGATTA,-0.131
CCTTATTC,-0.199
CAGAACTC,-0.118
CCTGAGGC,-0.0366
ATTTAAAC,-0.112
GTTCCTGA,-0.143
ACATAGCT,-0.132

# A few entries again (sample 2):
Sequence,RBNS enrichment (R)
AGGACAUUUGCACUUUGCCACUCAAUGUCGUACCUCGGUUCACUGUUUGUUUUUGAAUGCCCUGUUUUCAUAGAAUCCUAUCCUCUCAGAUGGUGGAAUCUUUGGGGAAA,3.19
UCUGCACUAUUAUCUGAUGACAUGUUGGUAAUUUUAAAGACUGCAAGGCAGUUUAGAGAAUGAAGUAAACCAAUAGAUACUCUUUUGAUUCUCCAAAGAAAUAUAAUUUU,0.672
AAGCUACGCCGGUGGAAUGUCAGUGUGCUGCUCUGUAGGGAACUGCAGAGCUUAGAGGACUGACUGCAUCUUGUUAGGGAAGCAUCUUUGAGAUGCAGAAUUCAUCUUUU,0.237
AUCCAUUUCCCCACUUAUUUAUAACCAGCCUUCCUUUCAGUCCUAGUGCCUGGAUCAAUGAGAUGGACACUAAUGCUGCUUCUUUAUAAUAAUAGUACCUAAGAGUAUUG,0.615
AUAUAAUUGUUUCAGUCCUAUGGCAUGGUGAUAGCAUAUGUGUUCAGGUUUAUAGCUGUUGUGUUUAAAGAUUGAAAAAAGUGGAAAACAUCUUUGUACAUUUAAGUCUG,1.32
GCUGAGCUUAUUCUUAGGGUAUGACCUGGCAUUAUUUCCAGUGACUAGUCAGGCAUUAUGCCUGAUGCAUACGCCUCCCGUGCACCCCUAUCUAGCCUUCAGAUGUCCUC,0.195
AGGGCCUCCAUCCCUGUAUUCUAAUGUUUUUACUCAAAGCUCUAGCCUUUAGGAUAGGUGAAUAUGUAAAUCUUUUAUCACUUUCUCAAAUUCAAACUAAAGGGGAAAGA,0.301
CUGGGGCCUGAUCCACCUCUACACCAGCCCAGGAAGCCCCAUCUGUGCCUGCCCUCAGGUGGUCCACCAGUCUCCCCCUUUGGUUCCCUUCCAGUCUCUUCCCCCUUUCU,0.742
